Published values gathered from unrelated publications.
Each numbered part is a random draw from the data of one study; scales do not carry over between parts. Substitutions count along the parent as printed.
UniProt O75116, sequence (whole entry, looked up): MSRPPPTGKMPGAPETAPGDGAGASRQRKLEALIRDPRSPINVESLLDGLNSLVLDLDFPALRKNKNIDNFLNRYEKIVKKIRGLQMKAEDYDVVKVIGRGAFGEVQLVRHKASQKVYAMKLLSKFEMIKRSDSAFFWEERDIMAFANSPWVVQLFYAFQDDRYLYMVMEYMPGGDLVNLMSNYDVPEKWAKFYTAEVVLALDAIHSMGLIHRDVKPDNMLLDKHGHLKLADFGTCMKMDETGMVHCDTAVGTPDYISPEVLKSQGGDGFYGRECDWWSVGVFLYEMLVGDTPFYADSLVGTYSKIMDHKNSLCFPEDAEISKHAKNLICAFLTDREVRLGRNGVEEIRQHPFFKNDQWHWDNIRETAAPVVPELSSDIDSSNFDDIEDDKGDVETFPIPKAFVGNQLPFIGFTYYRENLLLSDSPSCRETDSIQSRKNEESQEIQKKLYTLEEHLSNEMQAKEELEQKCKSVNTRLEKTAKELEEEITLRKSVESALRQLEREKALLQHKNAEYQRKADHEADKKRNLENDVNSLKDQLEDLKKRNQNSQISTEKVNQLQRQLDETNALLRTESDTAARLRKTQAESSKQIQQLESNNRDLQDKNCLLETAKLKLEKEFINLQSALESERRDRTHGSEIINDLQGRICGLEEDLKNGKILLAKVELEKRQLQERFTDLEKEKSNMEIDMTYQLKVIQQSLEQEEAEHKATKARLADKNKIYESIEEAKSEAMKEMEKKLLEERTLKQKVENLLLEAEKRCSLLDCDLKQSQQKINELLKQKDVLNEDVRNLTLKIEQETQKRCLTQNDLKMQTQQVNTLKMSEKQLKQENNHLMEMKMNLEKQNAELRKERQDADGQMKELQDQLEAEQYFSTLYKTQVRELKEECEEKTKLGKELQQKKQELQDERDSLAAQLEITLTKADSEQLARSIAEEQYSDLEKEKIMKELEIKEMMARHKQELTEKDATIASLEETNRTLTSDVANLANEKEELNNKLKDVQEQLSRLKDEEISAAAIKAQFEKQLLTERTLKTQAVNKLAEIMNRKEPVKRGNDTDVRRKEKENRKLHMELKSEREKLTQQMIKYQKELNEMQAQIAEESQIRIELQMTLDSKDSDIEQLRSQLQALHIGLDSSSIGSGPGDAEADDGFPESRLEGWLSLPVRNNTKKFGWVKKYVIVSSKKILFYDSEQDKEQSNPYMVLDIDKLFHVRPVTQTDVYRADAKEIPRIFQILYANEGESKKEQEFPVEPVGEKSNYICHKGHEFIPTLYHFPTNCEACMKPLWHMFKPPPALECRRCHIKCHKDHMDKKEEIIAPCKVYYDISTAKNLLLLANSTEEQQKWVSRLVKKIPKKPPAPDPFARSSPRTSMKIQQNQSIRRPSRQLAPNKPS
UniProt P61075, sequence (whole entry, looked up): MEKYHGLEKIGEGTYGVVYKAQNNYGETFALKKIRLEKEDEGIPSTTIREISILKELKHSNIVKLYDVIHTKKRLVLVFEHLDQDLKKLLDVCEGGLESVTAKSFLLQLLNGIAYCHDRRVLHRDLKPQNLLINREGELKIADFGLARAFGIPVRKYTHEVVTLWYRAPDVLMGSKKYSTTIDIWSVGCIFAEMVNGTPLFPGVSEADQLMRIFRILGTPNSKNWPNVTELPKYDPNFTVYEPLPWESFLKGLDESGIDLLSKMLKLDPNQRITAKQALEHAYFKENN

Sample 1
Target: Myc proto-oncogene protein, bHLH-zipper, MAX partner unstated (MYC, Homo sapiens, UniProt P01106, residues 368-449)
UniProt P01106, sequence (368-449, looked up): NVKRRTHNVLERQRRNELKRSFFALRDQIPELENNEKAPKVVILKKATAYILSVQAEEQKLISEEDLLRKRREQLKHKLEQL
Method: protein-binding microarray
Form: double-stranded DNA, one strand shown
Matrix: in vitro
Concentration: not given
Setting: k-mer, scored over probes, only values ≥0.25
Reading: higher = stronger binding
Oligonucleotide | E-score
ACCACGCC | 0.422
CGCATGTC | 0.418
GCAGCGCA | 0.304
ATGCCACA | 0.307
CACCTGGC | 0.34
CGTGTTCA | 0.394
CACGACGG | 0.268
CTCCCCAC | 0.316

Sample 2
Target: Probable WRKY transcription factor 11, DNA-binding domain (WRKY11, Arabidopsis thaliana, UniProt Q9SV15, residues 228-325)
Method: DNA-protein interaction ELISA
Form: double-stranded DNA, one strand shown
Matrix: in vitro, bacterial lysate
Concentration: not given
Setting: whole dsDNA probe, crude lysate protein
Baseline: highest signal in screen
Reading: higher = stronger binding
Residues (chain): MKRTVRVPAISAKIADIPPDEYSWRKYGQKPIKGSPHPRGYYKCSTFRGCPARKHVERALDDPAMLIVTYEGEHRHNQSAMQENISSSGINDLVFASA
Oligonucleotide | relative absorbance
AAAAAATAGTGTGATTGGTATCCAGTAAAA | 17.6 % of maximum
AAAAAAAGTTGTACTTATTATACTTTAAAA | 13 % of maximum
AAAAAAGCCCCTTGCGCCTCTCTACCAAAA | 17 % of maximum
AAAAAACTCGTACATCTATCGCTACGAAAA | 13.8 % of maximum
AAAAAACTACTACCTTTGCCTAAGCGAAAA | 17.9 % of maximum
AAAAAATGTGCCCGTGTGTGCTCGCGAAAA | 19.3 % of maximum
AAAAAATCAGTCTGAGACTTACAACTAAAA | 18.4 % of maximum
AAAAAAGTCGTTACACGTATGCGTGCAAAA | 42.1 % of maximum

Sample 3
Target: CCNA1, cyclin fold, Cln2 fusion (human)
Method: yeast growth competition, sequencing
Matrix: yeast
Setting: weak parent motif
Baseline: not given
Reading: higher = stronger binding
Starting sequence: viral docking peptide; KGVKRKLFAEDSS; partner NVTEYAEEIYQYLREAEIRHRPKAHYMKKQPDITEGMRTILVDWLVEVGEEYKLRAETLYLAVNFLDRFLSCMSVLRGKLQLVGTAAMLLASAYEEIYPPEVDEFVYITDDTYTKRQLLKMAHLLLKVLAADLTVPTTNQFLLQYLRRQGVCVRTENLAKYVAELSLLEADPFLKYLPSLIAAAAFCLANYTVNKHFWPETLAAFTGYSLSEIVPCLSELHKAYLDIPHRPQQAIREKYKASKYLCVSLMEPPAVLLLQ
Substitution | normalised enrichment score
KGVKRKLFAEDGS [S12G] | 0.878
KGIKRKLFAEDSS [V3I] | 0.781
KGHKRKLFAEDSS [V3H] | 0.189
KGVYRKLFAEDSS [K4Y] | 0.00362
KGVKRKLFAEDTS [S12T] | 1.59
KGVKRKLFAETSS [D11T] | 0.841
KGVKRHLFAEDSS [K6H] | 0.0464
KNVKRKLFAEDSS [G2N] | 1.44
KGVKRKLFAEDSA [S13A] | 0.837
KGCKRKLFAEDSS [V3C] | 0.992
KGVKRKYFAEDSS [L7Y] | 0.102
KGVKNKLFAEDSS [R5N] | 0.24
KGVNRKLFAEDSS [K4N] | 0.612

Mixed results
Substance | target | effect on | method | form | concentration | endpoint | result
CN(C)CC#Cc1ccc(OCCCc2sc(N3CCc4cccc(C(=O)Nc5nc6ccccc6s5)c4C3)nc2C(=O)O)c(F)c1 | CRK2 (Plasmodium falciparum, UniProt P61075) | cell-free assay | competition with immobilised ligand | – | 1 µM | remaining binding | 100%
YMYRVWSPL | HLA class I histocompatibility antigen, C alpha chain, allele C*04:01 (Homo sapiens, UniProt P10321) | peptide-MHC binding | – | peptide | concentration not given | binding | inactive
Cn1cncc1[C@](O)(COc1ccc(C#N)cc1-c1ccc(OC(F)(F)F)cc1)c1ccc(C#N)cc1 | ROCK2 (Homo sapiens, UniProt O75116) | cell-free assay | competition with immobilised ligand | – | 1 µM | remaining binding | 94%

Repeated from above (sample 2):
Oligonucleotide | relative absorbance
AAAAAACTCGTACATCTATCGCTACGAAAA | 13.8 % of maximum
AAAAAACTACTACCTTTGCCTAAGCGAAAA | 17.9 % of maximum
AAAAAATAGTGTGATTGGTATCCAGTAAAA | 17.6 % of maximum
AAAAAATCAGTCTGAGACTTACAACTAAAA | 18.4 % of maximum
